Experimental data from different studies.
Numbered parts are unrelated; each lists some results of a single study.
Chain of UniProt P16257 (whole entry, looked up): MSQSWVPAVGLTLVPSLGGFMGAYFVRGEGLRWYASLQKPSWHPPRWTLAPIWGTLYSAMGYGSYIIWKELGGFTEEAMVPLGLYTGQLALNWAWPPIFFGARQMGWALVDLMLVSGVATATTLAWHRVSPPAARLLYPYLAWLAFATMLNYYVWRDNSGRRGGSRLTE

Study 1
Target: Hepatocyte nuclear factor 3-beta, forkhead domain (FOXA2, Homo sapiens, UniProt Q9Y261, residues 142-269)
Technique: protein-binding microarray
Form: double-stranded DNA, one strand shown
Medium: in vitro
Tested at: not given
Setting: k-mer, scored over probes, only values ≥0.25
Direction: higher = stronger binding
Quantity: E-score
Construct (chain): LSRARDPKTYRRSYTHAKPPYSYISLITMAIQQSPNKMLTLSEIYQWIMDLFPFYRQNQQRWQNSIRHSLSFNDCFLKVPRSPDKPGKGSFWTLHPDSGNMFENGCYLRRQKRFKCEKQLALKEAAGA
CGTAAACA: 0.342
TTAGACAA: 0.262
TATATGAA: 0.265
AATAAACA: 0.375
GTACATAA: 0.338
TCGTACAA: 0.274
ATTAATAC: 0.314
AACACAGC: 0.269

Study 2
Organism: Saccharomyces cerevisiae
Observed: binding
Technique: competitive growth deep sequencing
Form: peptide
Strain: cyclin E1-Cln2 fusion strain
Tested at: concentration not given
Setting: peptide tiling library
Direction: direction not given
Quantity: growth enrichment score
GTPKRCLDLSNLSSGE: 0.481
DWDTVERQEEEAPSWD: 1.24
TQERKQIHCLSEDELS: 0.289
TLPYDLACTGGDFVLF: 0.218
TSSAQRRLEIPSGGAD: -0.315
PKRAKRKLYTSEISSP: 0.252
RKLDLEGIGR: 0.143
SNFFDVIKQLFSDEKN: 1.46

Study 3
Target: Receptor tyrosine-protein kinase erbB-4 (ERBB4, Homo sapiens, UniProt Q15303)
Chain of UniProt Q15303 (whole entry, looked up): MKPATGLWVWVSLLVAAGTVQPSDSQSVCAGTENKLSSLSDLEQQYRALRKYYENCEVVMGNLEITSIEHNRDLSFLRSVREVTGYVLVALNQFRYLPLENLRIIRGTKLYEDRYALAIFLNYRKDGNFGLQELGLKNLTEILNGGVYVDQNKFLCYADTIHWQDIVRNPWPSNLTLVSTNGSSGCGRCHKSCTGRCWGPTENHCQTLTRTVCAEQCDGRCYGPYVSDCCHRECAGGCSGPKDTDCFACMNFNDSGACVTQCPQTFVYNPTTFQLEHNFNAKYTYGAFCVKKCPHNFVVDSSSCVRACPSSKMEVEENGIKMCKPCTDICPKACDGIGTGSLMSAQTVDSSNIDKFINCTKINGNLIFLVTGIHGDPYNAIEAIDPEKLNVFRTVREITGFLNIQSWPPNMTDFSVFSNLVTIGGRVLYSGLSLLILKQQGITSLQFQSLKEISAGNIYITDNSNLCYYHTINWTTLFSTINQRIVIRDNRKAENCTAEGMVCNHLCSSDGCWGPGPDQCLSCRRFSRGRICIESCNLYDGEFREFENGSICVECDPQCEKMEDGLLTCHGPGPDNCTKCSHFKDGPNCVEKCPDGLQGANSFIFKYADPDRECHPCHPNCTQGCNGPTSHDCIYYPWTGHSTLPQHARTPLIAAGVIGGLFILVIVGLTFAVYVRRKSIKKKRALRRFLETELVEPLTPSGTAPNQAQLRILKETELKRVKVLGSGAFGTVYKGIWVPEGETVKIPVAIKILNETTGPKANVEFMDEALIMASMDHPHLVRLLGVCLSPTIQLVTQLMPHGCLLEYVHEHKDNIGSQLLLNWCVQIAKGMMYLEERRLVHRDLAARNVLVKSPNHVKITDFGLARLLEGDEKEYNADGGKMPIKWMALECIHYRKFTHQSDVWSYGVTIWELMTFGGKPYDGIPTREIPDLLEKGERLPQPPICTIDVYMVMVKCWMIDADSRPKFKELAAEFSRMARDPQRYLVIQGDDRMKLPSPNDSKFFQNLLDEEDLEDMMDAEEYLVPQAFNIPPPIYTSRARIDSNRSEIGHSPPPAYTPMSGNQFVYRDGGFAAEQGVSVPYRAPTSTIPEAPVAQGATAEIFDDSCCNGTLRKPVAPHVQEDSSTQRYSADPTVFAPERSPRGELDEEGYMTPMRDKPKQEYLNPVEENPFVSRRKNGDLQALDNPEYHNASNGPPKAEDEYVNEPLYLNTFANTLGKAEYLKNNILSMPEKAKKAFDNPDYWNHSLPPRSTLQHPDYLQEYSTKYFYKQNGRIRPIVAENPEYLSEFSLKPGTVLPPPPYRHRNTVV
Observed: enzyme activity
Mode: inhibitor
Tested at: 0.5 µM
Baseline: control
Quantity: remaining activity
COc1cc2ncnc(N3CCN(C(=O)Nc4ccc(Oc5ccccc5)cc4)CC3)c2cc1OC: 101%
CC(C)[C@H](CO)Nc1nc(Nc2cccc(Cl)c2)c2ncn(C(C)C)c2n1: 78.4%
CCN1/C(=C/C(C)=O)Sc2ccc(OC)cc21: 101%

Other studies, line by line
N[C@H]1CONC1=O
viability (A-375; 100 µM, 18 h): 99.2%

CN(C(=O)c1ccn2ncc(-c3ccc(C(N)=O)cc3)c2c1)c1ccc(C#N)cn1
half-life of parasite killing (Cryptosporidium parvum; time-kill, one-phase decay fit; nanoluciferase-expressing; 20 µM): 19.4 h

CNC(=O)c1cc(C(=O)N[C@H]2[C@@H]3COC[C@@H]32)cc2c1O[C@@H](CF)[C@@H]2c1ccccc1
inhibition (Translocator protein (Tspo, Rattus norvegicus, UniProt P16257); radioligand binding, radioligand displacement; 10 µM): -12.5%

CC(C)n1cnc(-c2ccc(F)cc2)c1-c1ncc(C(=O)Nc2ccc(N3CCN(C)CC3)cc2)[nH]1
median hospitalized days (idiopathic pulmonary fibrosis patients; 60 mg once daily, acute exacerbation hospitalization): 19 days

Excerpt of the above (study 1):
GTACATAA: 0.338
CGTAAACA: 0.342
